Published values of several laboratories.
Each numbered part is a random draw from the data of one study; scales do not carry over between parts.

Sample 1 — method: RNA Bind-n-Seq; molecule type: RNA; sample: in vitro; tested at: not given; relative to: input RNA pool; reading: higher = stronger binding; endpoint: bound/input enrichment
Target: RING finger protein unkempt homolog, zinc fingers 1-6, GST-SBP tag (UNK, Homo sapiens, UniProt Q9C0B0, residues 30-357)
Setting: RNA with constant flanks, human and mouse sites, ends assumed
All sequences stand within: GGGAGUUCUACAGUCCGACGAUC … CAACAGAGGAUUGAGCAUCA
Residues (chain): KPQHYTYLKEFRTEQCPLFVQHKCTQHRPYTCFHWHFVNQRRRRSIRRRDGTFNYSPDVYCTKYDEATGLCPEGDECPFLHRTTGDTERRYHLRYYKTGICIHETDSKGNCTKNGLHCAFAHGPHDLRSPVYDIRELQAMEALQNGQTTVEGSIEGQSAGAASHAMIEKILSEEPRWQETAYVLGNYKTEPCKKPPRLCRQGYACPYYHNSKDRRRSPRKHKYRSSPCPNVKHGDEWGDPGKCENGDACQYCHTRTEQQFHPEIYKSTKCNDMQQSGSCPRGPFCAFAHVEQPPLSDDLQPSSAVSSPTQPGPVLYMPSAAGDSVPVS
Sequence = UUAAAGGCAGAAAACCUGCUCUUGGAUGCUGAUAUGAACAUCAAGAUUGCAGACUUUGGCUUCAGCAAUGAAUUCACCUUUGGGAACAAGCUGGACACCUUCUGUGGCAGUCCCCCUUAU; result = 0.0608 ratio
Sequence = GGAAGGUAAGCCAGCAGGUGGUACCUUGUAGAUUGGUUCUCUUGAAGGCUGCUCUUGACAUCCCAGGGCACUGGCUUCUUCCUCCCUCCCCGCAAGGUGGGAGGUCCUGAGCGAGGUGUU; result = 0.0395 ratio
Sequence = ACUGCGAGAGGCGGCGGCGGAGGCAGUAGUUGCACCGGCAGAGGCGGCCGCUGGCAGCGGUUGAGGCGGCGGUCCAACGCGUGCUCUCUGGGCGGGGUGCGGCGGGGGAUGUGCCUGCUC; result = 0.0607 ratio
Sequence = GAAGCUAUUGGAAAGAAUAACCCUCCCCUGAAGUCCCGGAGCUUCUCGCUGGCAUCUAGUGGUAAUUCUCCCAUAUCCCAGCGGAGACCAAGUCAGAAUGCCAUGUCUUUUUUUAAUGUU; result = 0.634 ratio
Sequence = CCCAACCACUCUGUGGUGAAGCUACGCAAUGCAGGCCAUGCCUGUUACCUCCACAAGCCGCAAGACUUCCACCUUGUCCUGCUUGCCUUCCUUGACCAUCUACCUUGAACUAACCCACUC; result = 0.334 ratio
Sequence = UGGCACUUGUGUAAAACUGUCCCUGCAGAUUGAGCAGGAAGUAAAAACAAAUGGAAAUGCUUCGGAUAGUGGCAGGGGUGGGGGUUGCUAAGGAAAGGGUGGGAUGGGAGUGGGUAAAGA; result = 0.638 ratio
Sequence = CAGAUGCUGGUGACCACACCAGAAAAAUGGGAUGUAGUAACAAGAAAGAGUGUUGGGGAUGUUGCUCUUUCCCAAAUCGUAAAACUCCUGAUUCUUGACGAGGUGCACUUGCUGCAUGAA; result = 0.192 ratio
Sequence = UGUGAGUGAGGGUAUGUGCACCUAAGUGUGUACAUGUGUGUAUGUUGUGAAAGUGUCUGUGCACAUGAAUGUUUGUGUGUGUGUGAACUCUUUCUUACUGCUGGAAGUCACAGAAUUCAU; result = 0.13 ratio

Sample 2 — read-out: enzyme activity; mode: inhibitor; tested at: 20 µM; setting: hit confirmation; endpoint: inhibition
Target: Replicase polyprotein 1ab, main protease (rep, Severe acute respiratory syndrome coronavirus 2, UniProt P0DTD1)
Compound = CCO/N=C(/C(=O)N[C@@H]1C(=O)N2C(C(=O)O)=C(Sc3nc(-c4cc[n+](C)cc4)cs3)CS[C@H]12)c1nsc(NP(=O)(O)O)n1; result = 1.4%
Compound = COc1cc(/C=C(\C#N)C(N)=O)cc(CSc2nc3ccccc3s2)c1O; result = 23%
Compound = Oc1cccc(-c2c3nc(c(-c4cccc(O)c4)c4ccc([nH]4)c(-c4cccc(O)c4)c4nc(c(-c5cccc(O)c5)c5ccc2[nH]5)CC4)C=C3)c1; result = 77.8%
Compound = CC1=NN(c2ccc(C(=O)O)cc2)C(=O)C1=Cc1ccc(-c2cc(C)c(C)cc2[N+](=O)[O-])o1; result = 25.3%
Compound = CC(C)/N=c1\cc2n(-c3ccc(Cl)cc3)c3ccccc3nc-2cc1Nc1ccc(Cl)cc1; result = 17%

Sample 3 — method: competition protein-binding microarray; molecule type: double-stranded DNA, one strand shown; sample: in vitro; tested at: 2 µM; with: Cbf1 competitor, 0.05 µM; reading: higher = stronger binding; endpoint: fluorescence intensity; all sequences stand within: … GTCTTGATTCGCTTGACGCTGCTG
Target: Phosphate system positive regulatory protein PHO4, full length, GST-tagged (PHO4, Saccharomyces cerevisiae, UniProt P07270, residues 1-312)
Setting: whole 60-bp probe, lowest competitor level
Construct (chain): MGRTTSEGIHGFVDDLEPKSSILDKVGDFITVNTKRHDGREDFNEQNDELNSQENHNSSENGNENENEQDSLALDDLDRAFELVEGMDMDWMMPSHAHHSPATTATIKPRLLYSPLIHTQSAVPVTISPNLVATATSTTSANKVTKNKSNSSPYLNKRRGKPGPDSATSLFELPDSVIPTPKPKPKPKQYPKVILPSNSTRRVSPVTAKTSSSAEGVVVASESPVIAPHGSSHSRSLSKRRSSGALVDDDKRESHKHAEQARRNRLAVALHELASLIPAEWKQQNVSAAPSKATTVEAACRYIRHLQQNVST
Sequence = TGCGCAACAACTTGTTAGGTGGGTGTATGTCTAGAA; result = 4400 a.u.
Sequence = CTAATTCAGCACCAACACGTGAGATCCAACTAATAA; result = 15500 a.u.
Sequence = TAGCCGCTAAGGGTAGACATGACGCTGCTGTTCATC; result = 4760 a.u.
Sequence = ACTAAACAGTATATTCACGTGATGGCTTTGCCTTAC; result = 14900 a.u.
Sequence = ACATGTACCAAGTAACCTTTTCCAATAAAATTTCAA; result = 5190 a.u.

Sample 4 — mode: inhibitor; tested at: 20 µM; endpoint: inhibition
Target: Replicase polyprotein 1ab, nsp13 helicase (rep, Severe acute respiratory syndrome coronavirus 2, UniProt P0DTD1)
SMILES = C[N+]1(C)[C@@H]2CC[C@H]1C[C@@H](OC(=O)C(O)c1ccccc1)C2 (some centres unmarked); result = 9.15%
SMILES = CS(=O)(=O)CS(=O)(=O)OCCCl; result = 6.03%
SMILES = COC[C@@H](NC(C)=O)C(=O)NCc1ccccc1; result = -4.17%
SMILES = Clc1ccc(C(Cn2ccnc2)OCc2ccsc2Cl)c(Cl)c1 (centres unmarked); result = -1.32%
SMILES = CCCN(CCC)CCc1cccc2c1CC(=O)N2; result = -4.25%
SMILES = O=C(O)CCc1c(C(=O)O)[nH]c2cc(Cl)cc(Cl)c12; result = 7.42%
SMILES = CC(C)N(CC[C@H](c1ccccc1)c1cc(CO)ccc1O)C(C)C; result = 5.52%
SMILES = CCN(CC)CCCN(c1ccccc1)C1Cc2ccccc2C1; result = -0.19%
SMILES = COc1cnc(-n2cnc(C)n2)c2[nH]cc(C(=O)C(=O)N3CCN(C(=O)c4ccccc4)CC3)c12; result = 0.6%
SMILES = C=CC(N)CCC(=O)O (centres unmarked); result = 1.07%
SMILES = CC(=O)N(O)CCCCCNC(=O)CCC(=O)N(O)CCCCCNC(=O)CCC(=O)N(O)CCCCCN; result = 0.75%
SMILES = CC1(C)S[C@@H]2[C@H](NC(=O)[C@H](NC(=O)N3CCNC3=O)c3ccccc3)C(=O)N2[C@H]1C(=O)O; result = -4.89%
SMILES = CC(C)(Oc1ccc(Cl)cc1)C(=O)N1CSCC1C(=O)O (centres unmarked); result = -1.24%
SMILES = CCCCC/C=C\C=C\CCCCCCCCC(=O)O; result = 7.42%
SMILES = COC(=O)N/N=C/c1c[n+]([O-])c2ccccc2[n+]1[O-]; result = 3.56%
SMILES = CCCOc1ccc2[nH]cc(C3=CCNCC3)c2n1; result = 5.63%
SMILES = CC[C@@H]1C(=O)OC[C@@H]1Cc1cncn1C; result = -4.94%
SMILES = COc1ccc(CN(C(=O)[C@@H](N)Cc2c(C)cc(C(N)=O)cc2C)[C@@H](C)c2ncc(-c3ccccc3)[nH]2)cc1C(=O)O; result = -2.24%
SMILES = CNCC(=O)O; result = -2.44%
SMILES = CCOc1cc(CC(=O)N[C@@H](CC(C)C)c2ccccc2N2CCCCC2)ccc1C(=O)O; result = 5%
SMILES = Clc1ccc(N2CCN(Cc3c[nH]c4ncccc34)CC2)cc1; result = 2.2%

Sample 5 — cell line: HEK-293T; read-out: pseudovirus infection; method: FDA-approved drug library screen; organism: VSV pseudotyped with SARS-CoV-2 spike; tested at: 10 µM; time: 16 h; relative to: vehicle-treated; endpoint: GFP-positive cells
SMILES = OC[C@@H](O)[C@@H](O)[C@H](O)[C@@H](O)CO; result = 93.1%
SMILES = CC1(C)O[C@@H]2C[C@H]3[C@@H]4C[C@H](F)C5=CC(=O)C=C[C@]5(C)[C@@]4(F)[C@@H](O)C[C@]3(C)[C@]2(C(=O)CO)O1; result = 99.5%
SMILES = c1ccc2c(CC3=NCCN3)cccc2c1; result = 84%
SMILES = CC1=C(C(=O)O)N2C(=O)[C@@H](NC(=O)[C@H](N)c3ccc(O)cc3)[C@H]2SC1; result = 88.7%
SMILES = Cc1onc(-c2ccccc2)c1-c1ccc(S(N)(=O)=O)cc1; result = 103%

For quick reference, copied from above (sample 4):
SMILES = Clc1ccc(N2CCN(Cc3c[nH]c4ncccc34)CC2)cc1; result = 2.2%
SMILES = COC(=O)N/N=C/c1c[n+]([O-])c2ccccc2[n+]1[O-]; result = 3.56%
SMILES = CCN(CC)CCCN(c1ccccc1)C1Cc2ccccc2C1; result = -0.19%
SMILES = C=CC(N)CCC(=O)O (centres unmarked); result = 1.07%
SMILES = C[N+]1(C)[C@@H]2CC[C@H]1C[C@@H](OC(=O)C(O)c1ccccc1)C2 (some centres unmarked); result = 9.15%
SMILES = CC(C)(Oc1ccc(Cl)cc1)C(=O)N1CSCC1C(=O)O (centres unmarked); result = -1.24%
